Assay results pooled from the literature.
Lines come from different studies, so protocols differ. ± marks the error that the study gave.
HCRTR1: Orexin/Hypocretin receptor type 1 (HCRTR1, Homo sapiens, UniProt O43613)
Sequence of UniProt O43613 (whole entry, looked up): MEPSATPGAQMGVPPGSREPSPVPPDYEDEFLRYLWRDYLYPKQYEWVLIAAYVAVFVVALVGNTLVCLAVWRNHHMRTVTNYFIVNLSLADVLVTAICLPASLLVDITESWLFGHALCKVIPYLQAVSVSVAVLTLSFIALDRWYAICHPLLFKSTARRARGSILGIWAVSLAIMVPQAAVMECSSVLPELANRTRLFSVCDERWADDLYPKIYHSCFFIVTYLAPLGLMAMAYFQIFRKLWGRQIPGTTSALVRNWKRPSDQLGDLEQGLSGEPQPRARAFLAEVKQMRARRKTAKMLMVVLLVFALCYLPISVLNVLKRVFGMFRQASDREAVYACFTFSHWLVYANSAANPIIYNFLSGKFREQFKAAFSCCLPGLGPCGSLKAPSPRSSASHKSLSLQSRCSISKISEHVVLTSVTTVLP

`O=C1CCc2c(O)cccc2C(=O)Nc2ccccc21` has a kinetic solubility of over 100 µg/mL (nephelometry; aqueous buffer; 30 min, pH 6.5).
With `NC(=O)CC[C@@H]1NC(=O)[C@H](Cc2ccccc2)NC(=O)[C@H](Cc2ccc(O)cc2)NC(=O)CCSSC[C@@H](C(=O)N2CCC[C@H]2C(=O)N[C@H](CCCN=C(N)N)C(=O)NCC(N)=O)NC(=O)[C@H](CC(N)=O)NC1=O` the freeze-thaw stability was 92.7% (UPLC-MS/MS; human plasma; 3.05 pg/mL, three cycles).
With `Cn1c(-c2ccc(C(N)=O)cc2F)nnc1C(C)(C)Oc1c(F)cc(Cl)cc1F` the half-life mean was 18.9 h (young Japanese adults, plasma; oral, 10 mg single dose, day 1, high-dose multiple-dose study).
Under “elimination rate constant”, `CCC(CC)O[C@@H]1C=C(C(=O)O)C[C@H](N)[C@H]1NC(C)=O` is recorded as 2.61e-05 ± 3.33e-06 s⁻¹ (healthy Indian subjects, fed, plasma; oral, 75 mg oseltamivir phosphate, reference capsule formulation, Tamiflu).
Under “minimum serum concentration”, `C[C@]12CC[C@@H]3c4ccc(O)cc4CC[C@H]3[C@@H]1C[C@@H](O)[C@@H]2O` is recorded as 0 ng/mL (GC-MS; breast cancer women on NSAI, serum; vaginal, 0.03 mg, 8 h, day 0).
With `O=S(=O)(c1cc(Cl)c(O)c2ncccc12)C1CCCC1` the free concentration was 32 nM (rat Sprague-Dawley male, plasma; oral, 10 mg/kg, 4 h).
For `COc1c(C)c2c(c(O)c1C/C=C(\C)CCC(=O)O)C(=O)OC2`, the trough concentration was 3690 ± 2020 ng/mL (stable kidney transplant recipients, plasma; oral, dose not given, 12 h post-dose, steady state, with: tacrolimus).
The self-association parameter of `CC(=O)N[C@H](CCCCN)C(=O)N[C@H](CC(C)C)C(=O)N[C@@H](CN)C(=O)N[C@H](CO)C(=O)N[C@H](CC(C)C)C(=O)N[C@H](CC(C)C)C(=O)N[C@@H](CN)C(=O)N[C@@H](C(=O)N[C@H](CC(C)C)C(=O)N[C@H](CO)C(=O)N[C@@H](CN)C(=O)N[C@H](C)C(=O)N[C@H](CCCCN)C(=O)N[C@H](C)C(=O)N[C@H](C)C(=O)N[C@H](CCCCN)C(=O)N[C@H](CC(C)C)C(=O)N[C@@H](CN)C(=O)N[C@@H](C(=O)N[C@H](CC(C)C)C(=O)N[C@H](CC(C)C)C(=O)N[C@@H](CN)C(=O)N[C@H](C)C(=O)N[C@H](CC(C)C)C(=O)N[C@H](CO)C(=O)N[C@@H](CN)C(N)=O)[C@H](C)O)[C@H](C)O` is reported as 3.7 min (RP-HPLC temperature profiling; pH 2; reference: random coil control).
`CC1=C2C[C@H]3[C@@H](CC[C@@H]4C[C@H](NS(C)(=O)=O)CC[C@@]43C)[C@@H]2CC[C@@]2(C1)O[C@@H]1C[C@H](C)CN[C@H]1[C@H]2C` has a Cmax of 450 ng/mL (patients, plasma; oral, 160 mg daily, day 22, cycle 1).
Under “volume of distribution”, `colistin B methanesulfonate` is recorded as 0.263 ± 0.0583 L/kg (one-compartment PK model; rat; i.p., 20 mg/kg colistin base activity).
With `COc1cc2c(cc1OC)C(Cc1cccc(OC(C)C)c1)N(CC(=O)NCc1ccccc1)CC2` (stereo not drawn) the Kb was 1470 nM (HCRTR1; calcium signal, antagonist, fluorescence).
With `CC1(C)C2CC[C@@]1(C)C(=O)/C2=C/c1ccoc1` the maximum hemolysis was under 14% (human red blood cells; 10 to 300 µg/mL, 30 min).
The Vd/F of `CCCC[C@H](NC(C)=O)C(=O)N[C@H]1CCC(=O)NC[C@@H](C(=O)N[C@@H](Cc2c[nH]c3ccccc23)C(N)=O)NC(=O)[C@H](CCCNC(=N)N)NC(=O)[C@@H](Cc2ccccc2)NC(=O)[C@H](Cc2c[nH]cn2)NC1=O` is reported as 10.1 L/kg (CD Sprague Dawley rat, female, plasma; subcutaneous, 5.0 mg/kg daily, day 1).
The tissue uptake of `CCCC[C@@H]1NC(=O)[C@@H](NC(=O)[C@H](CCC(=O)O)NC(=O)CNC(=O)CN2CCN(CC(=O)O)CCN(CC(=O)O)CCN(CC(=O)O)CC2)CCCCNC(=O)C[C@@H](C(N)=O)NC(=O)[C@H](C(C)C)NC(=O)[C@@H]2CCCN2C(=O)[C@H](CCCNC(=N)N)NC(=O)CNC(=O)[C@H](Cc2c[nH]c3ccccc23)NC(=O)[C@H](CCCNC(=N)N)NC(=O)[C@@H](Cc2ccccc2)NC(=O)[C@H](Cc2c[nH]cn2)NC(=O)[C@H](CCC(=O)O)NC1=O` [indium-111 labelled] is reported as 0.03 ± 0.02 %ID/g (C57 mice, B16/F10 lung metastatic melanoma, muscle; intravenous, 0.037 MBq, 4 h).
`COc1cccc(N2CCN(C3=Nc4c(F)cccc4[C@H](CC(=O)O)N3c3cc(C(F)(F)F)ccc3OC)CC2)c1` — result for “elimination rate constant”: 1.59e-05 ± 4.25e-06 s⁻¹ (UHPLC-MS/MS; healthy women, plasma; intravenous infusion, 480 mg single dose, 60 min infusion, HPβCD formulation).
The MRT(0-t) of `O=C(/C=C/c1ccc(O)c2c1[C@H](C(=O)O)[C@@H](c1ccc(O)c(O)c1)O2)O[C@H](Cc1ccc(O)c(O)c1)C(=O)O` is reported as 7.93 ± 1.52 h (UPLC-MS/MS; Wistar rat, microcirculation dysfunction model, plasma; oral, 100 mg/kg Salvia miltiorrhiza stem-leaf extract FS).
`CC(C)(Sc1ccncc1-c1ccc(C#N)c2ccccc12)C(=O)O` has an AUC(0-24) of 111 ng·h/mL (non-Asian male subjects, plasma; oral, 10 mg, single dose, fed, geometric least squares mean).
For `CS(=O)(=O)Nc1ccc(C(=O)O[C@@H](Cc2c(Cl)c[n+]([O-])cc2Cl)c2ccc(OC(F)F)c(OCC3CC3)c2)cc1OCC1CC1`, the AUC(0-12h) was 5.1 ng·h/mL (human, plasma; inhalation, 1200 µg twice daily, day 1, geometric mean).
For `CNCCCC1(c2ccc(F)cc2)OCc2cc(C#N)ccc21` (stereo not drawn), “time fetal brain level decreasing” read 2.5 h (CD-1 mouse, pregnant E14 and E18, fetal brain; intraperitoneal, 20 mg/kg citalopram maternal).
The haemolysis of `C=CC(=C)CCC1(C)C(C)CC(O)C23C(=CC(OC(=O)C(C)CC)CC12)C(OC(C)=O)OC3OC(C)=O` (stereo not drawn) is reported as 27.1% (haemolysis; 500 µM).
`Cc1nc2cccc(OCC(C)(C)C(=O)NC(C)C)c2c(N)c1C(=O)O` has a half-life of 1.39 h (female Sprague-Dawley rat, plasma; oral gavage, 30 mg/kg, day 7).
With `CN(C(=O)c1ccn2ncc(-c3ccc(C(N)=O)cc3)c2c1)c1ccc(C#N)cn1` the hepatocyte CLint was 0.6 µL/min/10⁶ cells (metabolic stability; dog, hepatocytes).
`Cc1c(C(=O)NN2CCCCC2)nc(-c2ccc(Cl)cc2Cl)n1-c1ccc(OS(=O)(=O)CCC(F)(F)F)cc1` gave a plasma concentration of 999 nM (LC-MS/MS; cynomolgus monkey 3; intravenous infusion, 2.0 mg/kg, 90 min, total, PET mid-point).
`CC(C)NC[C@@H](C(=O)N1CCN(c2ncnc3c2[C@H](C)C[C@H]3O)CC1)c1ccc(Cl)cc1` has an AUC(0-∞) of 337 ng·h/mL (human, Healthy hepatic function, plasma; oral, 100 mg single dose, NCI classification, geometric mean).
With `CCCC[N+]1(CC(=O)OC2CCCCCCCCCCC2)CCCCC1.[I-]` the aqueous solubility was 186 µM (phosphate buffer with 2% DMSO; 90 min, pH 7.4, theoretical maximum 200 µM).
For `COc1cc2c(cc1OC)C(Cc1cccc(N(C)C)c1)N(CC(=O)NCc1ccccc1)CC2` (stereo not drawn), the Kb was 75.3 nM (HCRTR1; calcium signal, antagonist, fluorescence).
`CC(C)[C@H](NC(=O)[C@@H]1CCCN1C(=O)[C@H](CCCNC(=N)N)NC(=O)[C@H](CS)NC(=O)[C@H](Cc1c[nH]c2ccccc12)NC(=O)[C@H](CCCNC(=N)N)NC(=O)[C@@H](Cc1ccccc1)NC(=O)[C@H](Cc1c[nH]cn1)NC(=O)[C@H](CCC(=O)O)NC(=O)[C@H](CS)NC(=O)[C@H](CS)NC(=O)[C@H](CCCCN)NC(=O)[C@@H]1CC(=O)N[C@@H](CCCNC(=N)N)C(=O)N[C@@H](C)C(=O)N[C@@H](CC(=O)O)C(=O)N[C@H](Cc2ccc(O)cc2)C(=O)N1)C(N)=O` [technetium-99m labelled] has a tissue uptake of 0.18 ± 0.04 %ID/g (C57 mice, muscle; intravenous, 0.037 MBq, 4 h).
`CN[C@@H]1[C@H](O)[C@H](NC)[C@H]2O[C@]3(O)[C@H](O[C@@H]2[C@H]1O)O[C@H](C)C[C@H]3NC(=O)Cc1cc(Cl)c(OC)cn1` gave a parent remaining of 98.8% (glutathione conjugation; human liver S9; 100 µM, 2 h, pH 7.4, with: glutathione 0.2 mM).
For `c1ccc(-c2ccc(-c3nc4ccccc4[nH]3)cc2)cc1`, the maximum solubility was 10 µM (0.1 M sodium acetate with 0.01% Triton X-100; pH 5.5).
`COc1cc2c(cc1OC)CN(CCc1ccc(NC(=O)c3ccc(C(=O)O[11CH3])c(NC(=O)c4ccc5ccccc5n4)c3)cc1)CC2`: “unchanged parent in brain” 69% (Mdr1a/b(−/−)Bcrp1(−/−) female mouse, brain; intravenous, dose not given, 25 min; reference: radioactivity).
`COc1cc(Nc2ncc3c(n2)-c2ccc(Cl)cc2C(c2c(F)cccc2OC)=NC3)ccc1C(=O)O` has a trough concentration of 990 nM (children, UGT1A1 extensive metabolizers, no grade ≥2 toxicity, plasma; oral, 80 mg/m2, day 4, median).
For `CNC(=O)c1ccccc1Sc1ccc2c(/C=C/c3ccccn3)n[nH]c2c1`, the oral bioavailability was 45.7% (human; oral, fed, Form IV).
For `CCn1c(=O)c2c(nc(/C=C/c3ccc(O)c(OC)c3)n2C)n(CC)c1=O`, “metabolite to parent AUCinf ratio” read 0.0821 (healthy humans, plasma; oral, 40 mg, with: rifampin 600 mg/day).
With `CC(C)C[C@H](NC(=O)[C@H](CCc1ccccc1)NC(=O)CN1CCOCC1)C(=O)N[C@@H](Cc1ccccc1)C(=O)N[C@@H](CC(C)C)C(=O)[C@@]1(C)CO1` the Vz was 234 L (LC-MS; human, plasma; intravenous push, 11 mg/m^2).
The AUC(0-tlast) of `CCCOc1ccc([C@H]2CNC(=O)N2c2ccc3[nH]cnc3c2)cc1` is reported as 32200 ng·h/mL (human volunteers fasted, plasma; oral tablet, 1800 mg single dose, day 1, geometric mean).
Under “drug-related adverse events”, `O=C(c1cc(Cl)c(O)c(Cl)c1)N1CS(=O)(=O)c2ccccc21` is recorded as 25% (human, healthy Chinese adults; oral, 1 mg single dose; reference: subjects).

Excerpt of the above:
The Vd/F of `CCCC[C@H](NC(C)=O)C(=O)N[C@H]1CCC(=O)NC[C@@H](C(=O)N[C@@H](Cc2c[nH]c3ccccc23)C(N)=O)NC(=O)[C@H](CCCNC(=N)N)NC(=O)[C@@H](Cc2ccccc2)NC(=O)[C@H](Cc2c[nH]cn2)NC1=O` is reported as 10.1 L/kg (CD Sprague Dawley rat, female, plasma; subcutaneous, 5.0 mg/kg daily, day 1).
With `CCCC[N+]1(CC(=O)OC2CCCCCCCCCCC2)CCCCC1.[I-]` the aqueous solubility was 186 µM (phosphate buffer with 2% DMSO; 90 min, pH 7.4, theoretical maximum 200 µM).
`COc1cc2c(cc1OC)CN(CCc1ccc(NC(=O)c3ccc(C(=O)O[11CH3])c(NC(=O)c4ccc5ccccc5n4)c3)cc1)CC2`: “unchanged parent in brain” 69% (Mdr1a/b(−/−)Bcrp1(−/−) female mouse, brain; intravenous, dose not given, 25 min; reference: radioactivity).
`CN[C@@H]1[C@H](O)[C@H](NC)[C@H]2O[C@]3(O)[C@H](O[C@@H]2[C@H]1O)O[C@H](C)C[C@H]3NC(=O)Cc1cc(Cl)c(OC)cn1` gave a parent remaining of 98.8% (glutathione conjugation; human liver S9; 100 µM, 2 h, pH 7.4, with: glutathione 0.2 mM).
With `CN(C(=O)c1ccn2ncc(-c3ccc(C(N)=O)cc3)c2c1)c1ccc(C#N)cn1` the hepatocyte CLint was 0.6 µL/min/10⁶ cells (metabolic stability; dog, hepatocytes).
The self-association parameter of `CC(=O)N[C@H](CCCCN)C(=O)N[C@H](CC(C)C)C(=O)N[C@@H](CN)C(=O)N[C@H](CO)C(=O)N[C@H](CC(C)C)C(=O)N[C@H](CC(C)C)C(=O)N[C@@H](CN)C(=O)N[C@@H](C(=O)N[C@H](CC(C)C)C(=O)N[C@H](CO)C(=O)N[C@@H](CN)C(=O)N[C@H](C)C(=O)N[C@H](CCCCN)C(=O)N[C@H](C)C(=O)N[C@H](C)C(=O)N[C@H](CCCCN)C(=O)N[C@H](CC(C)C)C(=O)N[C@@H](CN)C(=O)N[C@@H](C(=O)N[C@H](CC(C)C)C(=O)N[C@H](CC(C)C)C(=O)N[C@@H](CN)C(=O)N[C@H](C)C(=O)N[C@H](CC(C)C)C(=O)N[C@H](CO)C(=O)N[C@@H](CN)C(N)=O)[C@H](C)O)[C@H](C)O` is reported as 3.7 min (RP-HPLC temperature profiling; pH 2; reference: random coil control).
